{"data": "Measured values gathered from unrelated publications", "note": "Each numbered part is a random draw from the data of one study; scales do not carry over between parts. Positions count from the first letter of the parent shown."}
{"data": "Series 1", "target": "PABPC1L2, full length, GST fusion (mouse, UniProt A0ABA7IW68)", "method": "RNAcompete", "form": "RNA", "medium": "in vitro", "concentration": "20 nM", "notes": "7-mer, probes averaged, single round", "baseline": "mean of 7-mers", "reading": "higher = stronger binding", "Target sequence (chain)": "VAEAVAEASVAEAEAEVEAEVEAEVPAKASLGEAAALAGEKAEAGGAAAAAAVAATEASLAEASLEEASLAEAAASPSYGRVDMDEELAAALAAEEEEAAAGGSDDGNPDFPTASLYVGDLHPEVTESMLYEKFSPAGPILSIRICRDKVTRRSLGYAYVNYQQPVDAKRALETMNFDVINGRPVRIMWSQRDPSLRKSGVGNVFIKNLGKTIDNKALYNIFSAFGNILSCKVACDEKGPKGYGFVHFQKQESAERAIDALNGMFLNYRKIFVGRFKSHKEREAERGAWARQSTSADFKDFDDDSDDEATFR"}
{"Sequence": "UGCUACU", "7-mer Z-score": -0.255}
{"Sequence": "AUUACUU", "7-mer Z-score": -0.282}
{"Sequence": "CGGCCAA", "7-mer Z-score": -0.0446}
{"Sequence": "CCUAUGU", "7-mer Z-score": -0.436}
{"Sequence": "GGCGAUG", "7-mer Z-score": 0.113}
{"Sequence": "CCGAACU", "7-mer Z-score": -0.277}
{"Sequence": "AAGAGGG", "7-mer Z-score": 1.22}
{"Sequence": "AUGUAUU", "7-mer Z-score": -0.208}
{"Sequence": "AAGUCUU", "7-mer Z-score": -0.293}
{"Sequence": "GCCGCAG", "7-mer Z-score": 0.0334}
{"Sequence": "UCCCGUC", "7-mer Z-score": -0.527}
{"Sequence": "CCCGCCU", "7-mer Z-score": -0.494}
{"Sequence": "AGUAGGA", "7-mer Z-score": -0.0554}
{"data": "Series 2", "target": "Cyclic AMP-dependent transcription factor ATF-1 (ATF1, Homo sapiens, UniProt P18846, residues 1-271, full length assumed)", "method": "protein-binding microarray", "form": "double-stranded DNA, one strand shown", "medium": "in vitro", "concentration": "not given", "notes": "k-mer, scored over probes, only values ≥0.25", "reading": "higher = stronger binding", "Construct (chain)": "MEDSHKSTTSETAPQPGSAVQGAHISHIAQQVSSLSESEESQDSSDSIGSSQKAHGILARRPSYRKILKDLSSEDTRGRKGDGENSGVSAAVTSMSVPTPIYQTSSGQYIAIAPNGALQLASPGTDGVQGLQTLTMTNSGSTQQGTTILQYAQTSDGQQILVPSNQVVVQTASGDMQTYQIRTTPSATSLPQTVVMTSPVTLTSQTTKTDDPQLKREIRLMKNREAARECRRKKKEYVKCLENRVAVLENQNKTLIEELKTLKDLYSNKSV"}
{"Sequence": "CGTATGA", "E-score": 0.292}
{"Sequence": "GAATGAC", "E-score": 0.252}
{"Sequence": "ACGTAAG", "E-score": 0.415}
{"Sequence": "ATCCACG", "E-score": 0.259}
{"Sequence": "ATTACGC", "E-score": 0.331}
{"Sequence": "CACGTAA", "E-score": 0.405}
{"Sequence": "TCACGGA", "E-score": 0.259}
{"Sequence": "GGTGACA", "E-score": 0.278}
{"data": "Series 3", "target": "ABI1, truncated, D143A, DHFR fusion (Arabidopsis thaliana)", "method": "DHFR PCA, deep sequencing", "medium": "yeast", "notes": "methotrexate growth selection, single substitutions", "added": "(+)-ABA 0 µM", "baseline": "wild-type fitted maximum", "reading": "higher = stronger binding", "parent": "PYL1, truncated, DHFR fusion (Arabidopsis thaliana); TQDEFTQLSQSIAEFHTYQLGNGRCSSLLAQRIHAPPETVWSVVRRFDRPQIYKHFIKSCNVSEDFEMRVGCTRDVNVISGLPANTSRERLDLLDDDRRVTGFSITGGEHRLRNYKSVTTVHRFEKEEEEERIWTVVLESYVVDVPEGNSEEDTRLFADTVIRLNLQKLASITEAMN"}
{"Variant": "Q51A", "relative binding score [%]": 24.4}
{"Variant": "D92K", "relative binding score [%]": -3.22}
{"Variant": "P146E", "relative binding score [%]": 3.93}
{"Variant": "T120Y", "relative binding score [%]": -6}
{"Variant": "H34R", "relative binding score [%]": 24.7}
{"Variant": "T39Q", "relative binding score [%]": 10.3}
{"Variant": "E14L", "relative binding score [%]": 2.87}
{"data": "Single results of other studies"}
{"Substance": "PhoQ, residues 284 288 289 292 302 303 SQSLSM", "target": "PhoP, residues 12 14 15 18 19 VHSCL (Escherichia coli, UniProt P23836)", "assay": "Sort-seq, refers to: YFP reporter", "system": "E. coli", "conditions": "PhoQ-PhoP variant library, added: 10 µM Mg2+", "how to read": "baseline: high Mg2+ state, higher = stronger signaling", "quantity": "fold induction", "result": 11}
{"note": "Repeated from above (series 3):"}
{"Variant": "P146E", "relative binding score [%]": 3.93}
{"Variant": "T120Y", "relative binding score [%]": -6}
{"Variant": "H34R", "relative binding score [%]": 24.7}
{"Variant": "T39Q", "relative binding score [%]": 10.3}
